Results from different studies.
Every numbered part comes from another study and shows a few of its results, in no order.
Chain of UniProt Q13761 (53-186, looked up): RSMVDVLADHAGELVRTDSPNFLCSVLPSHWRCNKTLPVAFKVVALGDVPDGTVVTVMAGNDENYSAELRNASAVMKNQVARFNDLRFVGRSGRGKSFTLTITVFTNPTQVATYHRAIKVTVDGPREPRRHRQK
Chain of UniProt P10914 (1-114, looked up): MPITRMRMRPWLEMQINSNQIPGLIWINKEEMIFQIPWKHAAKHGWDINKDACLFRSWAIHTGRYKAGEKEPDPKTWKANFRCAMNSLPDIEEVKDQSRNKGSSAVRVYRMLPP

Series 1
Target: Eukaryotic initiation factor 4A-I (EIF4A1, Homo sapiens, UniProt P60842, residues 1-406, full length assumed)
Chain of UniProt P60842 (whole entry, looked up): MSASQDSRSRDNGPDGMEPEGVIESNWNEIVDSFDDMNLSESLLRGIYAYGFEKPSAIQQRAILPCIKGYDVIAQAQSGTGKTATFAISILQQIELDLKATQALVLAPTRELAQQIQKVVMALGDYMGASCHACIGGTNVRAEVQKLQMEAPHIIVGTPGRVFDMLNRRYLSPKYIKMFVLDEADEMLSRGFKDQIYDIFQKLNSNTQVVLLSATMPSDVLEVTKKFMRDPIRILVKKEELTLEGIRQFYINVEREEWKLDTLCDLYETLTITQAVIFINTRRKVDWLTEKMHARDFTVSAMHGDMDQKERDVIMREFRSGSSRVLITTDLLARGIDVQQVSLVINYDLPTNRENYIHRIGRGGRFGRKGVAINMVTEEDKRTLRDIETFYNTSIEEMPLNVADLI
Technique: RNA Bind-n-Seq
Molecule type: RNA
Matrix: in vitro
Concentration: 15 pmol
Setting: 4-mer, random 30-nt RNA, single round
Together with: 3 µM RocA, 2 mM AMP-PNP
Reference: mean of 4-mers
Reading: higher = stronger binding
Quantity: 4-mer enrichment Z-score
Strand = GCAC; value = -0.893
Strand = CCUG; value = -0.603
Strand = UUCA; value = -1.44

Series 2
Cell line: HEK-293T/ACE2
Concentration: concentration not given
Time: 16 (unit not given)
Reference: vehicle
Quantity: viability
Compound = CC1=CC(=O)c2ccccc2C1=O; value = 96.3%
Compound = CC(=O)OCC(=O)[C@@]1(O)CC[C@H]2[C@@H]3CCC4=CC(=O)CC[C@]4(C)[C@@]3(F)[C@@H](O)C[C@@]21C; value = 101%
Compound = N#C[C@@H]1C[C@@H]2C[C@@H]2N1C(=O)[C@@H](N)C12CC3CC(CC(O)(C3)C1)C2; value = 104%
Compound = CCCCNc1cc(C(=O)O)cc(S(N)(=O)=O)c1Oc1ccccc1; value = 99.8%

Series 3
Target: Replicase polyprotein 1ab, nsp13 helicase (rep, Severe acute respiratory syndrome coronavirus 2, UniProt P0DTD1)
Read-out: helicase ATPase activity
Organism: SARS-CoV-2
Concentration: 20 µM
Quantity: inhibition
SMILES = O=C1C=Cc2cc(Br)ccc2C1=O; value = 108%
SMILES = Cc1ccc(-n2sc(=O)n(Cc3ccc(F)cc3)c2=O)cc1; value = 107%
SMILES = Oc1c(I)cc(I)c(O)c1I; value = 107%
SMILES = CCC(=O)OCN1C(=O)C=CC1=O; value = 107%
SMILES = O=C(O)c1ccc(SSc2ccc(C(=O)O)cn2)nc1; value = 106%
SMILES = O=c1[nH]nc(Sc2ncc([N+](=O)[O-])s2)n1-c1ccc2c(c1)OCCO2; value = 101%
SMILES = O=C1C(c2ccccn2)=[N+]([O-])c2ccccc21; value = 106%
SMILES = Cc1nc(C#Cc2ccnc(Cl)c2)c(C)n1-c1ccc(OC(F)(F)F)cc1; value = 105%
SMILES = CCC(C)SSc1ncc[nH]1 (centres unmarked); value = 108%
SMILES = O=C(O)[C@@H](S)[C@@H](S)C(=O)O; value = 108%
SMILES = Cc1ccc(S(=O)(=O)/C=C/C#N)cc1; value = 105%
SMILES = CO/N=C(\C(=O)N[C@@H]1C(=O)N2C(C(=O)O)=C(CSC(=O)c3ccco3)CS[C@H]12)c1csc(N)n1; value = 102%
SMILES = CCN(CC)C(=S)S; value = 94.4%
SMILES = N#CSc1cc(SC#N)c(N)nc1N; value = 106%
SMILES = CCOC(=O)C1=C(N)Oc2ccc(Br)cc2[C@H]1[C@H](C#N)C(=O)OCC; value = 106%
SMILES = O=C(Nc1ccc2c(O)cc(S(=O)(=O)[O-])cc2c1)Nc1ccc2c(O)cc(S(=O)(=O)[O-])cc2c1.[Na+].[Na+]; value = 57.5%

Series 4
Target: Interferon regulatory factor 5, full length, phosphomimetic (IRF5, Homo sapiens, UniProt Q13568-2, residues 1-514, S451D/S453D/S456D/S462D)
Technique: protein-binding microarray
Molecule type: double-stranded DNA, one strand shown
Matrix: in vitro
Concentration: 940 nM top
Setting: 60-bp whole probe
Together with: salmon DNA 0.4 mg/ml
Reference: random background probes
Reading: higher = stronger binding
Quantity: fitted relative affinity
Constant ends, left off below: GCCTAGCAC … GTCTTGATTCGCTTGACGCTGCTG
Strand = GACGGACTGGCGTTTCGGGACGTGCTA; value = 0.258 z-score
Strand = GACGGTCTCCTATTGCTGACGTGCTAG; value = -0.0283 z-score
Strand = TCATATACACTTATGACACTGTGCTAG; value = 0.139 z-score
Strand = TTAGATTTCAGTTTCGATTCGTGCTAG; value = 9.03 z-score
Strand = GACGGTATCGGTCTAGGGACGTGCTAG; value = 8.59 z-score
Strand = GACGGATTCCTACTGCTGACGTGCTAG; value = -0.151 z-score
Strand = TCAAACCCCATTCTCAGACTGTGCTAG; value = 0.954 z-score
Strand = TCTAGCCTCCATTTTTACCCGTGCTAG; value = 0.321 z-score

Series 5
Structure (SMILES): Oc1cc(CNC(=S)/C=C/c2cc(O)c(O)c(Br)c2)cc(O)c1O
Quantity: inhibition
rep main protease: Replicase polyprotein 1ab, main protease (rep, Severe acute respiratory syndrome coronavirus 2, UniProt P0DTD1)
target or system = rep main protease; read-out = enzyme activity; mode = inhibitor; concentration = 20 µM; setting = hit confirmation, with DTT; value = -4.6%
target or system = SARS-CoV-2; read-out = cytopathic effect; cell line = Vero E6; concentration = 10 µM; value = 2.9%
target or system = rep main protease; read-out = enzyme activity; mode = inhibitor; concentration = 20 µM; setting = hit confirmation, no DTT; value = 78.1%

Further values, each from its own experiment
Technique: protein-binding microarray
Molecule type: hairpin DNA
Matrix: in vitro
Concentration: not given
Setting: whole hairpin DNA, median over replicate spots
Reference: not given
Reading: higher = stronger binding
HOXC11 full length: Homeobox protein Hox-C11, full length (HOXC11, Homo sapiens, UniProt O43248, residues 1-304)
Chain of UniProt O43248 (whole entry, looked up): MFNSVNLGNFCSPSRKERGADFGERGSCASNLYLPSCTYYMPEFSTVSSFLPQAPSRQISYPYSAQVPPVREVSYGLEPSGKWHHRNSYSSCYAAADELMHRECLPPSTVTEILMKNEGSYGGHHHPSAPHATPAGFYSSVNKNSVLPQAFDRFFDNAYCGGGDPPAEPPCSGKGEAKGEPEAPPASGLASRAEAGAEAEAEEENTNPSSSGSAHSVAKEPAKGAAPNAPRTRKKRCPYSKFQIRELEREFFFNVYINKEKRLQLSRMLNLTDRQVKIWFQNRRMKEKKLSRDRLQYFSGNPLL
Strand = GAGGCCAGGTCGTTAAGGCCTCCTGGCCTTAACGACCTGGCCTCACACTC; target = HOXC11 full length; median fluorescence = 10400 a.u.
Strand = GAGGCCCAACCGCACGAGCCTCCTGGCTCGTGCGGTTGGGCCTCACACTC (5mC at 29); target = Runt-related transcription factor 3, Runt domain (RUNX3, Homo sapiens, UniProt Q13761, residues 53-186); median fluorescence = 7320 a.u.
Strand = GAGGCCGGGTCGTAAAAGCCTCCTGGCTTTTACGACCCGGCCTCACACTC (5mC at 38); target = HOXC11 full length; median fluorescence = 11000 a.u.
Strand = GAGGCCCGAACGCGAAACGCCTCCTGGCGTTTCGCGTTCGGGCCTCACAC (5mC at 11 35); target = Interferon regulatory factor 1, DNA-binding domain (IRF1, Homo sapiens, UniProt P10914, residues 1-114); median fluorescence = 551 a.u.

For quick reference, copied from above (series 5):
target or system = SARS-CoV-2; read-out = cytopathic effect; cell line = Vero E6; concentration = 10 µM; value = 2.9%
target or system = rep main protease; read-out = enzyme activity; mode = inhibitor; concentration = 20 µM; setting = hit confirmation, no DTT; value = 78.1%
